Measured values pooled from the literature.
Parts stem from different laboratories: compare values within a part only. Values joined by “and” are separate records of one study, mostly repeats; a detail may differ.
Chain of UniProt P42336 (whole entry, unmodified, looked up): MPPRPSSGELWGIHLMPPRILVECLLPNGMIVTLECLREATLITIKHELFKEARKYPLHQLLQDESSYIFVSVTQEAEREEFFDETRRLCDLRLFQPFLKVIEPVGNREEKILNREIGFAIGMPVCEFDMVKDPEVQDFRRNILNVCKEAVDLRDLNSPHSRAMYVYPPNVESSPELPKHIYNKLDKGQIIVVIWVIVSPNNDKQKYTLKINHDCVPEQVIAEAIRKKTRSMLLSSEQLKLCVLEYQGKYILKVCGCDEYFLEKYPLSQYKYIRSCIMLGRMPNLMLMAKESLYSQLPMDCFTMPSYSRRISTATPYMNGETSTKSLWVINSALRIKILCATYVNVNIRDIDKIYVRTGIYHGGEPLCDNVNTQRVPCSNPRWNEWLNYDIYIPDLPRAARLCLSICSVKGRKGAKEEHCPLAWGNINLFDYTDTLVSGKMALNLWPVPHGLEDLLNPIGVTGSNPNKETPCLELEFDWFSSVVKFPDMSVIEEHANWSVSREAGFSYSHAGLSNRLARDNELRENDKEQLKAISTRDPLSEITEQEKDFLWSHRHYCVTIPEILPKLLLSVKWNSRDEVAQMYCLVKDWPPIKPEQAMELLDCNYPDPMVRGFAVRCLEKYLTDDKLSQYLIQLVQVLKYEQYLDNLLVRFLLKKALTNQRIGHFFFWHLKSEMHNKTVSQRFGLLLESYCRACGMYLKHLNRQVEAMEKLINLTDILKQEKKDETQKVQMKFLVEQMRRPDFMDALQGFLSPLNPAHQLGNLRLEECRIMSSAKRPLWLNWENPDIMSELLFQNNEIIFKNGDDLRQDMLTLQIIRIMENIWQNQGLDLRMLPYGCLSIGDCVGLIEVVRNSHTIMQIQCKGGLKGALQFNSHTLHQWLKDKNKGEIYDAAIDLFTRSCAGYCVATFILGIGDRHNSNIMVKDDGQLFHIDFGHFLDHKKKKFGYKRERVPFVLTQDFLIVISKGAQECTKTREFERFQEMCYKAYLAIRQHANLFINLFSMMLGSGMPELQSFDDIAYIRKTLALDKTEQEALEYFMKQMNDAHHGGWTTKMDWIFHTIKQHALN

Series 1
SMILES: CNC(=O)Nc1ccc2c(c1)[C@@]1(CC2)OC(=O)N(CC(=O)N(Cc2ccc(F)cc2)[C@@H](C)C(F)(F)F)C1=O
Observed: cell-free assay
Technique: competition with immobilised ligand
Tested at: 1 µM
target | remaining binding [%]
PIK3CA (Homo sapiens, UniProt P42336, I800L) | 63
CAMK2G (Homo sapiens, UniProt Q13555) | 98
MAP3K12 (Homo sapiens, UniProt Q12852) | 100
MYLK3 (Homo sapiens, UniProt Q32MK0) | 85
PIP5K1C (Homo sapiens, UniProt O60331) | 100
DYRK2 (Homo sapiens, UniProt Q92630) | 92
ULK1 (Homo sapiens, UniProt O75385) | 64
PIK3CA (Homo sapiens, UniProt P42336, M1043I) | 100

Series 2
Target: DNA polymerase theta, ATPase domain (POLQ, Homo sapiens, UniProt O75417)
Chain of UniProt O75417 (whole entry, unmodified, looked up): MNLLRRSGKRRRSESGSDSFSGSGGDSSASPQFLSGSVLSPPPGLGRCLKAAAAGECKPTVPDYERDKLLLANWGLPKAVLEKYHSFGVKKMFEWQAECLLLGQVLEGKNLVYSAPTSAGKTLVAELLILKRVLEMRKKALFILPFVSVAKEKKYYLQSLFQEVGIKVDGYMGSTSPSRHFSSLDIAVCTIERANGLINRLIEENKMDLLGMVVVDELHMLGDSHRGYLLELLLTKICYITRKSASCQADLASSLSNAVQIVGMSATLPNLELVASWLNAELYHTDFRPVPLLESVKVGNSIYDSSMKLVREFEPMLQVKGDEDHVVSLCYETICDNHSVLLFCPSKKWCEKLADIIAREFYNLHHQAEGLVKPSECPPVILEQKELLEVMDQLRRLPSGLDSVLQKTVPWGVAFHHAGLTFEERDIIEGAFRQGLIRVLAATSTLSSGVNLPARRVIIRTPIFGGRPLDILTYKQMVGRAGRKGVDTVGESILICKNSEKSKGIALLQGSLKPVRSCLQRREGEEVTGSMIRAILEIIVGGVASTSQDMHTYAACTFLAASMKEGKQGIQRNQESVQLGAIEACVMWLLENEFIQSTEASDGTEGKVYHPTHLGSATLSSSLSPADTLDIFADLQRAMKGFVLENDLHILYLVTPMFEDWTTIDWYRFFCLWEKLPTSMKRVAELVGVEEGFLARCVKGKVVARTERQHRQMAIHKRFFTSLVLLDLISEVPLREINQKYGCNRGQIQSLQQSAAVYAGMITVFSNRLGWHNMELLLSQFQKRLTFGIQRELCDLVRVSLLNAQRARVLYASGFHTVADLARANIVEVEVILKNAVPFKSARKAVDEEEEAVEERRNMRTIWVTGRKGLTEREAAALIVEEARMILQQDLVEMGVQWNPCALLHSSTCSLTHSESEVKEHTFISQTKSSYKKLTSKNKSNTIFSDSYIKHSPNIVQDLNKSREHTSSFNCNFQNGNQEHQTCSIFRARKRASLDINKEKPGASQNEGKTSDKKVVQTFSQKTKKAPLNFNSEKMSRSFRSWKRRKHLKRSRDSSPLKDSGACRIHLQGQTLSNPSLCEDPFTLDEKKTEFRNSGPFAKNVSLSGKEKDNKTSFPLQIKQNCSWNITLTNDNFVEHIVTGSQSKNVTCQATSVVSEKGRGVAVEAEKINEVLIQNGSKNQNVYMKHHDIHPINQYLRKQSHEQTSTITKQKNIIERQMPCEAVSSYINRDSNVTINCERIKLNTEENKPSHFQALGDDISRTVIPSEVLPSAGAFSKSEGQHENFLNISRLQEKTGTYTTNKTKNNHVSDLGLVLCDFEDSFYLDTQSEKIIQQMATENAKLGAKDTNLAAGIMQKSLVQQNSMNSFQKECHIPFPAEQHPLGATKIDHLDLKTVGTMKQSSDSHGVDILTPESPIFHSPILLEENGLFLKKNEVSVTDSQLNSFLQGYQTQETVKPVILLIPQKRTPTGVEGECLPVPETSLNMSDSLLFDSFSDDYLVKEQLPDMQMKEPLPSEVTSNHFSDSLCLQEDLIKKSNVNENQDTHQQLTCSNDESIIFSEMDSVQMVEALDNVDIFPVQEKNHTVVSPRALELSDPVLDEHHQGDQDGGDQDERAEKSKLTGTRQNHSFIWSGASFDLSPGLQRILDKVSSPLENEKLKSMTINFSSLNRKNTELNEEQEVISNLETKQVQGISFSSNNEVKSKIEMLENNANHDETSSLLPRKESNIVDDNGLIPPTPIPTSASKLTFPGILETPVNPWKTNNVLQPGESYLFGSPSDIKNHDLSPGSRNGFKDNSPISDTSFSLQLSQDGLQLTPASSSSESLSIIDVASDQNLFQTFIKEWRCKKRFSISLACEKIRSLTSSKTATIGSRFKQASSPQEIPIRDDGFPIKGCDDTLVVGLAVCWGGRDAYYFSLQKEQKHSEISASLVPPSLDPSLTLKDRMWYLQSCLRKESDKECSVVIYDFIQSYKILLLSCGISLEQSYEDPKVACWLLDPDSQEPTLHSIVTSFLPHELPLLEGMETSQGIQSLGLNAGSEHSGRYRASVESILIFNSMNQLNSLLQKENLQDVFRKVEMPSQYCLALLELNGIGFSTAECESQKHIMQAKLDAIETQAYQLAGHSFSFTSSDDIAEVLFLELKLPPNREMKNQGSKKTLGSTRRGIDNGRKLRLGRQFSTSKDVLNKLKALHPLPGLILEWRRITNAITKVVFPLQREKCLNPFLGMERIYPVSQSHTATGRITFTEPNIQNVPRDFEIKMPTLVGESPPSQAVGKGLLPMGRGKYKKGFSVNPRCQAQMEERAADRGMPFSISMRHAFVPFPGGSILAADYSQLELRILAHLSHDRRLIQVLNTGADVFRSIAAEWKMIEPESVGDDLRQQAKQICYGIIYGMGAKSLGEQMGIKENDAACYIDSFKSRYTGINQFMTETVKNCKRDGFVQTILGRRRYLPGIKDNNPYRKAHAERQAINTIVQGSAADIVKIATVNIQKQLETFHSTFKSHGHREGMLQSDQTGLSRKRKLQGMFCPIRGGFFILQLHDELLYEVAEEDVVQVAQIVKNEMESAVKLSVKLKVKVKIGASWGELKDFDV
Observed: enzyme activity
Action: inhibitor
Tested at: 77 µM
Relative to: untreated
Compound | remaining activity
CCCCC[C@H](CC(=O)NO)C(=O)N[C@H](C(=O)N1CCC[C@H]1CO)C(C)C | 102%
Cc1noc(NS(=O)(=O)c2ccc(N)cc2)c1C | 93.4% and 107%
CN(C(=O)CN(CCO)CC(=O)N(C)C(C)(C)Cc1ccccc1)C(C)(C)Cc1ccccc1 | 103%
CC(=O)[C@H]1CC[C@H]2[C@@H]3C[C@H](C)C4=CC(=O)CC[C@]4(C)[C@H]3[C@@H](O)C[C@]12C | 102%
CCn1cc(C(=O)O)c(=O)c2cnc(N3CCNCC3)nc21 | 109%
CO[C@H]1/C=C/O[C@@]2(C)Oc3c(C)c(O)c4c(O)c(c(/C=N/N5CCN(C)CC5)c(O)c4c3C2=O)NC(=O)/C(C)=C\C=C\[C@H](C)[C@H](O)[C@@H](C)[C@@H](O)[C@@H](C)[C@H](OC(C)=O)[C@@H]1C | 100% and 97.8%
OC[C@H]1O[C@@H](c2ccc(Cl)c(Cc3ccc(O[C@H]4CCOC4)cc3)c2)[C@H](O)[C@@H](O)[C@@H]1O | 99.5%
Cc1cc(NC(=O)C2=C(O)c3ccccc3S(=O)(=O)N2C)no1 | 97%
COC(=O)C1=C(C)NC(C)=C(C(=O)OC)C1c1cccc(NC(=O)NCCCN2CCC(c3cccc(OC)c3)CC2)c1 | 104%
CCN1CCc2nc(N)oc2CC1 | 113%

Series 3
Compound: CC(=O)N[C@@H](Cc1c[nH]c2ccccc12)C(=O)N[C@@H](CCC(=O)C=[N+]=[N-])C(=O)OC(C)C
Sample: EL4 tumour
Dose: dose not given
Relative to: vehicle
item | host | log2 fold change
2'-O-methylcytidine | mouse, EL4 tumour-bearing | -0.845
ribulose/xylulose | mouse, EL4 tumour-bearing | 0.823
N6,N6,N6-trimethyllysine | Mus musculus | -0.251
serotonin | mouse, EL4 tumour-bearing | 0.0559
ornithine | mouse, EL4 tumour-bearing | 0.591
hydroxyproline | mouse, EL4 tumour-bearing | 0.0576

Series 4
Target: Ephrin type-A receptor 7 (EPHA7, Homo sapiens, UniProt Q15375)
Chain of UniProt Q15375 (whole entry, looked up): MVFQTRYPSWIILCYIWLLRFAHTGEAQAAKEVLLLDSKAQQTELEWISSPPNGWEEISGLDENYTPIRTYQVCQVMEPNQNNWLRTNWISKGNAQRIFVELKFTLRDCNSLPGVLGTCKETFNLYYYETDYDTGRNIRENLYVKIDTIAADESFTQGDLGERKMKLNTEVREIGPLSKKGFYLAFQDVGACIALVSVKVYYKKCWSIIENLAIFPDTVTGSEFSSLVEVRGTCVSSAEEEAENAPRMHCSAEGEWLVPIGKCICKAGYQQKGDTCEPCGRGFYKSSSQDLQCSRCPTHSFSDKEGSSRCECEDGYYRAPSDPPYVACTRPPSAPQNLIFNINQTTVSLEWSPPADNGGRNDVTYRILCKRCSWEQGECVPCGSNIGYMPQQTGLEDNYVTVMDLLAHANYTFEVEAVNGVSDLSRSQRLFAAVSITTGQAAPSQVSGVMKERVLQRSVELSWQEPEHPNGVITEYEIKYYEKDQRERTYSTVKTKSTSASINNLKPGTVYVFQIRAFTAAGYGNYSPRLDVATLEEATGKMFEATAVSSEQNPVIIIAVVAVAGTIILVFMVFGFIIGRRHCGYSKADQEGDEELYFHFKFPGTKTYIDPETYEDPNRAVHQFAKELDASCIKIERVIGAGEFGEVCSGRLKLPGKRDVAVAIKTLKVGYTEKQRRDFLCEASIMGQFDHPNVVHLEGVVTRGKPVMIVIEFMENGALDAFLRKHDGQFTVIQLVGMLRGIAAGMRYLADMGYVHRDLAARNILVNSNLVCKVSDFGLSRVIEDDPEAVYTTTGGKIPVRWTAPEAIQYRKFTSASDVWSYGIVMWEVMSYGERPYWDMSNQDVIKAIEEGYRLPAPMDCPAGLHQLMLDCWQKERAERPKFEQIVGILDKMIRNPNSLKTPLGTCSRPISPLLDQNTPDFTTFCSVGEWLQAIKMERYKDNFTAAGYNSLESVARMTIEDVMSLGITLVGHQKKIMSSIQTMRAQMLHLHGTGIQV
Observed: enzyme activity
Action: inhibitor
Tested at: 0.5 µM
Relative to: control
Structure (SMILES) | remaining activity
OCC(O)CCON=C1C(c2c(O)[nH]c3ccccc23)=Nc2ccccc21 (stereo not shown) | 71.4%
Cn1sc(=O)n(Cc2ccccc2)c1=O | 105%
CCOC(=O)c1c(C)[nH]c(/C=C2\C(=O)Nc3ccccc32)c1C | 85.3%
O=C(Nc1cccc(Nc2cc(Nc3cccc(C(F)(F)F)c3)ncn2)c1)C1CC1 | 101%
Cc1cccc(-c2[nH]c(C(C)(C)C)nc2-c2ccc3c(c2)OCO3)n1 | 81.6%
O=S(=O)(c1cccc2cnccc12)N1CCCNCC1 | 97.3%
COc1ccc(OC)c2c(=S)c3ccccc3[nH]c12 | 89.7%
Cc1nc(-c2ccccc2)c(-c2ccncc2)o1 | 91.5%
Cc1ccc(Nc2nccc(N(C)c3ccc4c(C)n(C)nc4c3)n2)cc1S(N)(=O)=O | 94.1%
COc1ccc(C(=O)Nc2sc3c(c2C(N)=O)CCCC3)cc1OC | 96.2%
O=c1c2ccccc2[nH]c(=S)n1CCN1CCC(=C(c2ccc(F)cc2)c2ccc(F)cc2)CC1 | 96.9%
Nc1ccc2ncnc(NCCc3ccc(Oc4ccccc4)cc3)c2c1 | 104%
CO[C@H]1C[C@@H]2CC[C@@H](C)[C@@](O)(O2)C(=O)C(=O)N2CCCC[C@H]2C(=O)O[C@H]([C@H](C)C[C@@H]2CC[C@@H](O)[C@H](OC)C2)CC(=O)[C@H](C)/C=C(\C)[C@@H](O)[C@@H](OC)C(=O)[C@H](C)C[C@H](C)/C=C/C=C/C=C/1C | 89.7%
COc1cc2nccc(Oc3ccc(NC(=S)NC(=O)c4ccccc4C)cc3)c2cc1OC | 90.4%
Oc1ccc(-c2nc(-c3ccncc3)c(-c3ccc(F)cc3)[nH]2)cc1 | 86.1%
CC(C)[C@H](CO)Nc1nc(Nc2cc(N)cc(Cl)c2)c2ncn(C(C)C)c2n1 | 80.2%
